Measured values gathered from unrelated publications.
Every numbered part comes from another study and shows a few of its results, in no order. Positions count from the first letter of the parent shown.

Series 1
Target: CCND2, cyclin fold, Cln2 fusion (human)
Method: yeast growth competition, sequencing
Sample: yeast
Notes: weak parent motif
Reference: not given
Direction: higher = stronger binding
Starting sequence: SGO1 docking peptide (human); PLAKRALKYTDEK; partner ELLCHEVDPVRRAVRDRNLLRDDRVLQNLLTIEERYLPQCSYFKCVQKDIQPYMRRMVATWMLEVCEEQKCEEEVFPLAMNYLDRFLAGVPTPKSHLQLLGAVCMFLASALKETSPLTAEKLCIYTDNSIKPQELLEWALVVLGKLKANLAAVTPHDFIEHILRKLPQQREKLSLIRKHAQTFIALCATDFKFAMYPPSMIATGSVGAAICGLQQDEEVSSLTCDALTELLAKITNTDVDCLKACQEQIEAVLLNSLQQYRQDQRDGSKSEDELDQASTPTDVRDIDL
Change	normalised enrichment score
R5A	-0.188
E12A	0.168
Y9A	0.0121
T10A	0.476
K13A	-0.131
K4A	0.175

Series 2
Target: Histone acetyltransferase KAT6A, winged helix 2, GST fusion (KAT6A, Homo sapiens, UniProt Q92794, residues 85-181)
Method: protein binding microarray
Molecule type: double-stranded DNA, one strand shown
Sample: in vitro
Concentration: not given
Notes: 8-mer, flanks averaged, mean of 2 arrays, mostly near background
Reference: not given
Direction: higher = stronger binding
Residues (chain): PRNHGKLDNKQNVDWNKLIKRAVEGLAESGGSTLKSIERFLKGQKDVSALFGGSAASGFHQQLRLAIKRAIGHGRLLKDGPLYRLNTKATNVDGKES
Oligonucleotide	E-score
CATTGCCC	-0.0767
CGTGTGGA	-0.0157
ACCATCTA	-0.0882
AGCCGTGA	0.145
GGAATGGA	-0.0651
ATGCGAAT	0.00264
AGGGTTAC	-0.0684
ACCTTTCT	-0.134
CGACTAGA	-0.051
TAAAAGCA	0.124
AAAGCCTC	0.00509
TCAATACA	-0.0273
CAAGTACA	-0.145
CACATCAG	-0.174
ATCAACTA	0.0783
AACCGGTA	-0.158

Series 3
Target: RING finger protein unkempt homolog, zinc fingers 1-6, SBP tag (UNK, Homo sapiens, UniProt Q9C0B0, residues 30-357)
Sequence of UniProt Q9C0B0 (30-357, looked up): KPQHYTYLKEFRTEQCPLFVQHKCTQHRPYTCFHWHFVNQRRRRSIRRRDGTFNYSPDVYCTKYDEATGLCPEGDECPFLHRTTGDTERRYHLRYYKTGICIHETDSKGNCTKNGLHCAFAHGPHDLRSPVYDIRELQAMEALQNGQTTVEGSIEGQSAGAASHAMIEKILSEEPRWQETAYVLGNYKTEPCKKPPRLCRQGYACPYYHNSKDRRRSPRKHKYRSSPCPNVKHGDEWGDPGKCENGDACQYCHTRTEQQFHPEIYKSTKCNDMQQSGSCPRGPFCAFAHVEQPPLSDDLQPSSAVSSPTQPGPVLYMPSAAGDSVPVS
Method: RNA Bind-n-Seq
Molecule type: RNA
Sample: in vitro
Concentration: 100 nM
Notes: RNA with constant flanks, vertebrate orthologous sites, ends assumed
Reference: input RNA pool
Direction: higher = stronger binding
Constant ends, left off below: GGGAGUUCUACAGUCCGACGAUC … CAACAGAGGAUUGAGCAUCA
Oligonucleotide	bound/input enrichment
AUUGUAGUUUUGUUUUGCAUAAGAGUUUGUAUUAAAGAUCUUCAAAGGGUAAGGGAUACACUAGCAAUGGUCCCAGGUGCCUGGCCUCCAGUGCCCCAUUCGGAGCAAACCUAUCAGGGU	0.221 ratio
GGACUGGGGGGUGGUGGGUGGGAAGAAGAUGUAUGUAUGUUAUUGGCAUUUUUAAGUGUUCAGAGGUGGGUUUUUUUUCCCCCCUUUCUGUUUUGUUUUUUUUUUUCCCUUCAAUUGAAU	0.424 ratio
AAAUAUACUUCAUGCCAUGGACUCCGUACCGCACGGAUACUUUGAUAGAAUAUGCUUCCUUGGAGGACUUCCAGAACGGACGCCAGCAGACGACGUACAAACUCCCAAACCGAGUGGAUG	0.594 ratio
UCAUCUCUUUUUAUAUGUCCAAAAAUGGCUUUGAAUUUUUAAACAGUUGCUAGUUUUAAUUAGCUCUGUUCUCAUGAAGUAUUGUUAUAGUUCACCACAAACAUAUCUGUCUGAUUACUU	0.375 ratio
UCGCCCAGUUCAUACCAGCAGCUCCGCUCUCAGACGUGCACAGCUUACAAAGGAACAGUCUAGUGGGAUUUUUAUUUUAAUUUAAAACCUGCUUUUCCCAAAACUGAUCAAGAAGCUACA	0.575 ratio
UAUGUAGAGAACAUUUUUCAUUGACCCUCCCCCUACUGUGAAAGUCCCUAGCAGUUUAUUUAGAAUCUUAAUUUUUCUAAUUCAGGCUCAUUGUAUUAGUCAUUUUUAGCCCAGAAUUAA	4.63 ratio
AGCAACCCAAGGAUUCAGGACUGGUUUUACAAAUAUACCAAGUAGAUAUGGAACUAACAAUAGAAUUGGACAACCAAGACCAUGAUGUACUAUAAUUUAAUUUAUUUUUAUGAGGAAUAU	0.641 ratio
UUUAAUUGUGACCAGAAAUCACCCCACCUCUGACCCAGCAGGAUGAGAACUAGUGUCUUAUUGCUGUUACCUUUCCAGUGGUCAUUUGUCCUGGUCUAGAGCUUGAGGAAACCAUGUGAA	0.0862 ratio

Series 4
Target: RNA binding protein fox-1 homolog 2, RRM domain, GST-SBP tag (RBFOX2, Homo sapiens, UniProt O43251-10, residues 100-194)
Method: RNA Bind-n-Seq
Molecule type: RNA
Sample: in vitro
Concentration: 365 nM
Notes: natural RNA segment, single round, ends assumed
Reference: no-protein control
Direction: higher = stronger binding
Constant ends, left off below: GGGAGUUCUACAGUCCGACGAUC … UGGAAUUCUCGGGUGCCAA
Construct (chain): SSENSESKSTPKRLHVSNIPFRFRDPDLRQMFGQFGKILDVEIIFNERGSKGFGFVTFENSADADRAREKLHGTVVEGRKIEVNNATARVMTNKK
Oligonucleotide	RBNS enrichment (R)
UAUGUCUGGAGGGUACCAACUCCUCCAGCCUAGACCCCUGGCUUUGUCCAACACCAGCCCUGACCCAAGUCCAAAUGUUUACAGGGAGCCUCCUGCCUACCCCACUCUCU	0.307
GAUCCUCCUGCCUCAGCUUCCCAAGUAGCGGGGAUCACAGGCAUGAGCCGCCACACCCGGCCAUCACACCUGGAUUUUCAGUGGGAGGUUUUUGGUUUGGAGACAUCCAA	0.386
GCAGGCACUGUGGGGUCCUGAGGGCCAGUGGGUCCAUUUCACCUCUUGCUGCAUGAUGGUCAGUAGCUGAUCUGUUAUGGCAUUCACUUCCAGAUUAAUUUUCCGUGUUU	20
CCAGGCUUCGUCUUAUUUCUACUGUUUUUGUCGCAACUUCCAUUGAUUUAUGUCCCUUCCCUCCCCCCUAAGUACAUCAGGGAACCUUUCCACACUAUAAAUGAUAUGAC	2.06
CUUCAUAUCCUACUUGUUAAUAGCCGUCUUCUCCCUCUGUCAUCUACCCAGAGCAUUCAGCUUGGGACUGUCGUCCAGUGCAGGGCCCAGGUGAGAGGAGACUGCCAGCG	0.427
GGAUUCAGAUGGAAGCUUCGCAAGGCUGGGGGCCGAGGACCACCCACUUCUCUUUCCCAGCCCUAGUUCUGGGUUCCCCAGUGGGGCAAGGGGUGGUGGAGGCAGUGCCC	0.181
AACUCCAAGUGAUAGUGAGACCCAUCUCUCCUCUACCUUGAAGAGAGCAGAUCAUAGUAUAUGAGAUAGGAAUUCCCAUCCUAUUUGAGUUGAACUCUCUUCUGUACCUC	0.328
GCACUUAUUUCCCUCCUGUCCUAGGAUUUGAUUCUUCCAGAAUGACCUUCUUAUUUAUGUAACUGGCUUUCAUUUAGAUUGUAAGUUAUGGACAUGAUUUGAGAUGUAGA	0.383

For quick reference, copied from above (series 2):
Oligonucleotide	E-score
GGAATGGA	-0.0651
ATGCGAAT	0.00264
AGGGTTAC	-0.0684
ACCTTTCT	-0.134
